Measurements gathered from unrelated publications.
Compare with care: the assays were run in different laboratories. Values joined by “and” are separate records of one study, mostly repeats; a detail may differ. Numbers after ± are the reported error. Values after ≈ are worked out from the molar mass of the structure shown.

SMILES | organism | assay | system | setting | how to read | measurement | result
O=C(O)c1ncn(CCO)c1C(=O)O | Mammarenavirus lassaense | viral replication | Vero | 48 h |  | IC90 | > 50 µg/mL
Cc1ccc(N2CC(N3CCC(C)(O)CC3)C2)cc1C(=O)NC1(c2ccc3c4c(cccc24)C(=O)N3C)CC1 | SARS-CoV-2 | viral replication | Vero C1008, XBB.1 | 0.05144 µM |  | inhibition | 55%
Oc1c(Br)ccc2cccnc12 | Shigella dysenteriae | microbial growth, agar dilution |  |  |  | MIC | 35.7 µM
O=S(=O)(O)c1c2ccccc2c(-c2c3nc(c(-c4c5ccccc5c(S(=O)(=O)O)c5ccccc45)c4ccc([nH]4)c(-c4c5ccccc5c(S(=O)(=O)O)c5ccccc45)c4nc(c(-c5c6ccccc6c(S(=O)(=O)O)c6ccccc56)c5ccc2[nH]5)C=C4)C=C3)c2ccccc12 | vaccinia virus | viral replication | CV-1, WR | 50 µg/mL, 16 h |  | inhibition | 96%
O=[N+]([O-])c1ccc(C2=[N+]([O-])c3ccccc3N3CCCN=C23)cc1 | Clostridium perfringens |  |  |  |  | MIC90 | 2 µg/mL (≈ 6.2 µM)
CN1CCN(C(=O)N[C@@H](Cc2ccccc2)C(=O)N[C@H](/C=C/S(=O)(=O)c2ccccc2)CCc2ccccc2)CC1 | Lassa virus | pseudovirus entry | HEK-293T |  |  | IC50 | > 100 nM
Cc1ccc(NS(=O)(=O)c2c(C(=O)N3CCCCCC3)c(C)n(C)c2C)c(Cl)c1 | Vaccinia virus | viral infection | HaCaT | 100 µM, 36 h | baseline: untreated | infection | 0.745% and 0.651% and 0.494%
O=[N+]([O-])c1ccc(-n2nc(-c3ccccc3)cc2-c2ccc(F)cc2)c([N+](=O)[O-])c1 | Japanese encephalitis virus |  | Neuro2a, SA14-14-2 | 15 µM, 96 h |  | virus titre | 5.25 log10 TCID50
CC(C)CC(C(=O)N1CC2(CC1C#N)C(=O)Nc1ccccc12)N(C)C(=O)c1cc2c(F)cc(F)c(F)c2[nH]1 (stereo not shown) | SARS-CoV-2 | viral replication, infectious virus | Vero E6 | 10 µM |  | inhibition | 99.6%
COc1ccc(C2=[N+]([O-])c3ccccc3N3CCN=C23)cc1 | Clostridium perfringens |  |  |  |  | MIC | 0.25 to 1 µg/mL
CC[C@H](C)[C@H](NC(=O)[C@H](CCCCN)NC(=O)[C@H](CCCCN)NC(=O)[C@H](CC(C)C)NC(=O)[C@H](Cc1c[nH]c2ccccc12)NC(=O)CN)C(=O)NCC(=O)N[C@@H](CCCCN)C(=O)N[C@@H](CCCCN)C(=O)N[C@H](C(=O)N[C@@H](CCC(=O)O)C(=O)N[C@@H](CCCNC(=N)N)C(=O)N[C@H](C(=O)NCC(=O)N[C@@H](CCC(N)=O)C(=O)N[C@@H](Cc1c[nH]cn1)C(=O)N[C@H](C(=O)N[C@@H](CCCNC(=N)N)C(=O)N[C@@H](CC(=O)O)C(=O)N[C@@H](C)C(=O)N[C@H](C(=O)N[C@H](C(=O)N[C@@H](CCC(N)=O)C(=O)N[C@H](C(=O)N[C@H](C(=O)NCC(=O)N[C@H](C(=O)N[C@@H](C)C(=O)N[C@@H](CCC(N)=O)C(=O)N[C@@H](CCC(N)=O)C(=O)N[C@@H](C)C(=O)N[C@@H](C)C(=O)N[C@@H](CC(N)=O)C(=O)N[C@H](C(=O)N[C@@H](C)C(=O)N[C@@H](C)C(=O)N[C@H](C(=O)N[C@@H](CC(C)C)C(=O)N[C@@H](CCCCN)C(N)=O)[C@@H](C)O)C(C)C)C(C)C)[C@@H](C)CC)[C@@H](C)O)[C@@H](C)CC)[C@@H](C)O)[C@@H](C)O)C(C)C)[C@@H](C)CC | Proteus mirabilis |  | DSM 4479, CAMHB |  |  | MIC | > 1020 µg/mL
COC(=O)c1ncn(CCO)c1C(=O)OC | Zaire ebolavirus | viral replication, inhibitor | Vero | 72 h |  | IC50 | 17 µg/mL
CC[C@@]1(O)C[C@H](O[C@H]2C[C@H](N(C)C)[C@H](O[C@H]3C[C@H](O)[C@H](O[C@H]4CCC(=O)[C@H](C)O4)[C@H](C)O3)[C@H](C)O2)c2c(cc3c(c2O)C(=O)c2c(O)cccc2C3=O)[C@H]1C(=O)OC | SARS-CoV-2 BA.1 | viral replication, RT-qPCR of viral RNA | Calu-3 |  |  | IC50 | 180 nM
COC(=O)c1ncn(CCOP(=O)(O)O)c1C(=O)OC | Mammarenavirus lassaense | viral replication | Vero | 48 h |  | IC90 | > 50 µg/mL
O=C(c1ccccc1O)c1[nH]c(Cl)c(Cl)c1-n1c(C(=O)c2ccccc2O)cc(Cl)c1Cl | Yersinia pseudotuberculosis |  | ATCC 6904 |  |  | MIC | > 64 µM
O=[N+]([O-])c1ccc(Oc2ccccc2)c(O)c1 | Francisella tularensis | bacterial growth | LVS |  |  | MIC90 | 0.21 ± 0.05 µg/mL (≈ 0.908 µM)
C[N+]1=C2C(c3ccc(Cl)cc3)=[N+]([O-])c3ccccc3N2CCC1 | Clostridium butyricum |  |  |  |  | MIC | 4 µg/mL
CC[C@H](C)[C@H](NC(C)=O)C(=O)N[C@@H](CO)C(=O)NCC(=O)N[C@H](C(=O)N[C@@H](CC(N)=O)C(=O)N[C@@H](C)C(=O)N[C@@H](CO)C(=O)N[C@H](C(=O)N[C@H](C(=O)N[C@@H](CC(N)=O)C(=O)N[C@H](C(=O)N[C@@H](CCC(N)=O)C(=O)N[C@@H](CCCCN)C(=O)N[C@@H](CCC(=O)O)C(=O)N[C@H](C(=O)N[C@@H](CCC(=O)O)C(=O)N[C@@H](CCCNC(=N)N)C(=O)N[C@@H](CC(C)C)C(=O)N[C@@H](CC(N)=O)C(=O)N[C@@H](CCCCN)C(=O)N[C@H](C(=O)N[C@@H](C)C(=O)N[C@@H](CCCCN)C(=O)N[C@@H](CCC(=O)O)C(=O)N[C@@H](CC(C)C)C(=O)N[C@@H](CC(N)=O)C(=O)N[C@@H](CCCCN)C(=O)N[C@@H](CO)C(=O)N[C@@H](CC(C)C)C(=O)N[C@H](C(=O)N[C@@H](CC(=O)O)C(=O)N[C@@H](CC(C)C)C(=O)N[C@@H](CCC(N)=O)C(=O)N[C@@H](CCC(=O)O)C(=O)NCC(=O)NCC(=O)NCC(=O)N[C@@H](CO)C(=O)NCC(=O)NCC(=O)NCC(=O)N[C@@H](CSSC[C@H](NC(=O)CNC(=O)CNC(=O)CNC(=O)[C@H](CO)NC(=O)CNC(=O)CNC(=O)CNC(=O)[C@H](CCC(=O)O)NC(=O)[C@H](CCC(N)=O)NC(=O)[C@H](CC(C)C)NC(=O)[C@H](CC(=O)O)NC(=O)[C@@H](NC(=O)[C@H](CC(C)C)NC(=O)[C@H](CO)NC(=O)[C@H](CCCCN)NC(=O)[C@H](CC(N)=O)NC(=O)[C@H](CC(C)C)NC(=O)[C@H](CCC(=O)O)NC(=O)[C@H](CCCCN)NC(=O)[C@H](C)NC(=O)[C@@H](NC(=O)[C@H](CCCCN)NC(=O)[C@H](CC(N)=O)NC(=O)[C@H](CC(C)C)NC(=O)[C@H](CCCNC(=N)N)NC(=O)[C@H](CCC(=O)O)NC(=O)[C@@H](NC(=O)[C@H](CCC(=O)O)NC(=O)[C@H](CCCCN)NC(=O)[C@H](CCC(N)=O)NC(=O)[C@@H](NC(=O)[C@H](CC(N)=O)NC(=O)[C@@H](NC(=O)[C@@H](NC(=O)[C@H](CO)NC(=O)[C@H](C)NC(=O)[C@H](CC(N)=O)NC(=O)[C@@H](NC(=O)CNC(=O)[C@H](CO)NC(=O)[C@@H](NC(C)=O)[C@@H](C)CC)[C@@H](C)CC)C(C)C)C(C)C)[C@@H](C)CC)[C@@H](C)CC)C(C)C)[C@@H](C)CC)C(N)=O)C(N)=O)[C@@H](C)CC)C(C)C)[C@@H](C)CC)[C@@H](C)CC)C(C)C)C(C)C)[C@@H](C)CC | SARS-CoV-2 Wuhan | viral replication | VeroE6/TMPRSS2 cells |  | baseline: corresponding monomer | fold change IC50 vs corresponding monomer | 0.341
Cc1ccc(-c2cc(-c3ccccc3)nn2-c2ccc([N+](=O)[O-])cc2[N+](=O)[O-])cc1 | Japanese encephalitis virus | viral replication | SA14-14-2 | 5 µM, co- and post-treatment |  | plaque reduction | ~10%
CC(/C=C/C(O)=C1/C(=O)CNC1=O)=C\[C@@H](C)[C@H]1O[C@@]2(C)O[C@H](C[C@@H]3O[C@@]32CO)[C@@H]1C | Bacillus anthracis |  | 34F2 |  |  | MIC | 6.25 µM
COc1ccc(C2=[N+]([O-])c3ccccc3N3CCCN=C23)cc1 | Clostridium perfringens |  |  |  |  | MIC90 | 32 µg/mL (≈ 104 µM)
COC(=O)c1ncn(C2OC(COC(C)=O)C(OC(C)=O)C2OC(C)=O)c1C(=O)OC (stereo not shown) | Zaire ebolavirus | viral replication, inhibitor | Vero | 72 h |  | IC50 | 19 µg/mL

For quick reference, copied from above:
SMILES | organism | assay | system | setting | how to read | measurement | result
COc1ccc(C2=[N+]([O-])c3ccccc3N3CCN=C23)cc1 | Clostridium perfringens |  |  |  |  | MIC | 0.25 to 1 µg/mL
O=[N+]([O-])c1ccc(-n2nc(-c3ccccc3)cc2-c2ccc(F)cc2)c([N+](=O)[O-])c1 | Japanese encephalitis virus |  | Neuro2a, SA14-14-2 | 15 µM, 96 h |  | virus titre | 5.25 log10 TCID50
CC[C@H](C)[C@H](NC(=O)[C@H](CCCCN)NC(=O)[C@H](CCCCN)NC(=O)[C@H](CC(C)C)NC(=O)[C@H](Cc1c[nH]c2ccccc12)NC(=O)CN)C(=O)NCC(=O)N[C@@H](CCCCN)C(=O)N[C@@H](CCCCN)C(=O)N[C@H](C(=O)N[C@@H](CCC(=O)O)C(=O)N[C@@H](CCCNC(=N)N)C(=O)N[C@H](C(=O)NCC(=O)N[C@@H](CCC(N)=O)C(=O)N[C@@H](Cc1c[nH]cn1)C(=O)N[C@H](C(=O)N[C@@H](CCCNC(=N)N)C(=O)N[C@@H](CC(=O)O)C(=O)N[C@@H](C)C(=O)N[C@H](C(=O)N[C@H](C(=O)N[C@@H](CCC(N)=O)C(=O)N[C@H](C(=O)N[C@H](C(=O)NCC(=O)N[C@H](C(=O)N[C@@H](C)C(=O)N[C@@H](CCC(N)=O)C(=O)N[C@@H](CCC(N)=O)C(=O)N[C@@H](C)C(=O)N[C@@H](C)C(=O)N[C@@H](CC(N)=O)C(=O)N[C@H](C(=O)N[C@@H](C)C(=O)N[C@@H](C)C(=O)N[C@H](C(=O)N[C@@H](CC(C)C)C(=O)N[C@@H](CCCCN)C(N)=O)[C@@H](C)O)C(C)C)C(C)C)[C@@H](C)CC)[C@@H](C)O)[C@@H](C)CC)[C@@H](C)O)[C@@H](C)O)C(C)C)[C@@H](C)CC | Proteus mirabilis |  | DSM 4479, CAMHB |  |  | MIC | > 1020 µg/mL
